Assay results gathered from unrelated publications.
Every numbered part comes from another study and shows a few of its results, in no order. Changes are numbered by the printed parent chain.

Study 1 — target: CEP164, C-terminal peptide (human); method: DHFR complementation, deep sequencing; matrix: yeast; relative to: wild type; reading: higher = weaker binding
Notes: single substitutions, model-inferred values
Starting sequence: PDZK1, PDZ domain 2 (human); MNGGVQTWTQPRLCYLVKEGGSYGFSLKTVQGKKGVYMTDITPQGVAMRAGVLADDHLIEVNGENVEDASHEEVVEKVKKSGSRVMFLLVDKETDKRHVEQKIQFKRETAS; partner HNRVKVYRF
`Y15W` — result for “binding free energy change”: 0.253 kcal/mol.
For `K79Q`, “binding free energy change” read 0.238 kcal/mol.
`K77H`: “binding free energy change” 0.331 kcal/mol.
`K77R`: “binding free energy change” -0.0523 kcal/mol.
Under “binding free energy change”, `I59L` is recorded as 0.115 kcal/mol.
`P43G` — result for “binding free energy change”: 0.641 kcal/mol.
`T7F`: “binding free energy change” -0.128 kcal/mol.
`Q101P` — result for “binding free energy change”: -0.021 kcal/mol.

Study 2 — method: protein-binding microarray; molecule type: double-stranded DNA, one strand shown; matrix: in vitro; tested at: 2540 nM top; notes: 60-bp whole probe; together with: salmon DNA 0.4 mg/ml; relative to: random background probes; reading: higher = stronger binding; shared flanks, not repeated: GCCTAGCAC … GTCTTGATTCGCTTGACGCTGCTG
Target: Interferon regulatory factor 3, full length, phosphomimetic (IRF3, Homo sapiens, UniProt Q14653, residues 1-427, S386D/S396D/S398D/S402D/T404D/S405D)
Target sequence (chain): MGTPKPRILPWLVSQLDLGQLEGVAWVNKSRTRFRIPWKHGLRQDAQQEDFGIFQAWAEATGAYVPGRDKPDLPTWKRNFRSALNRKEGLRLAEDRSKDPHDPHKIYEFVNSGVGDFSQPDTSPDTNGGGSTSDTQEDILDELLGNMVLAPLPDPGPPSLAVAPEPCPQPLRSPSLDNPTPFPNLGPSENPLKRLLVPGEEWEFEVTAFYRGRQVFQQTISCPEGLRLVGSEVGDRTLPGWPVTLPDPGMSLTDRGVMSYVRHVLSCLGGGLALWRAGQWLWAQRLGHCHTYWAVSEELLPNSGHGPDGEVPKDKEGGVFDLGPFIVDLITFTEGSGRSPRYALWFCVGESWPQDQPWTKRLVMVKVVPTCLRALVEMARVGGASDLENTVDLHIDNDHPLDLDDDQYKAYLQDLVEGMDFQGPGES
For `TTAGAACGGAGACTGGATTAGTGCTAG`, “fitted relative affinity” read 0.276 z-score.
`CCCGTTCACCCACGACCCTTGTGCTAG`: “fitted relative affinity” 1.33 z-score.
Under “fitted relative affinity”, `GACGGTATCCTTTTCCAGACGTGCTAG` is recorded as 8.03 z-score.
`TTTATTTTCTGAATGCCCTCGTGCTAG`: “fitted relative affinity” 2.53 z-score.
`GACGTACTGGGGTTTCGGGACGTGCTA`: “fitted relative affinity” 0.73 z-score.
`ATTTTTTTATCAATCATTTTGTGCTAG`: “fitted relative affinity” 1.21 z-score.
`TTAGGTATCGGGTATCTGTTAGTGCTA`: “fitted relative affinity” 1.24 z-score.
`GACGGACTGCTTCTCCGGACGTGCTAG` — result for “fitted relative affinity”: -0.0756 z-score.

Single results of other studies
P1: viral docking peptide; TSVRRALFTGGSD; partner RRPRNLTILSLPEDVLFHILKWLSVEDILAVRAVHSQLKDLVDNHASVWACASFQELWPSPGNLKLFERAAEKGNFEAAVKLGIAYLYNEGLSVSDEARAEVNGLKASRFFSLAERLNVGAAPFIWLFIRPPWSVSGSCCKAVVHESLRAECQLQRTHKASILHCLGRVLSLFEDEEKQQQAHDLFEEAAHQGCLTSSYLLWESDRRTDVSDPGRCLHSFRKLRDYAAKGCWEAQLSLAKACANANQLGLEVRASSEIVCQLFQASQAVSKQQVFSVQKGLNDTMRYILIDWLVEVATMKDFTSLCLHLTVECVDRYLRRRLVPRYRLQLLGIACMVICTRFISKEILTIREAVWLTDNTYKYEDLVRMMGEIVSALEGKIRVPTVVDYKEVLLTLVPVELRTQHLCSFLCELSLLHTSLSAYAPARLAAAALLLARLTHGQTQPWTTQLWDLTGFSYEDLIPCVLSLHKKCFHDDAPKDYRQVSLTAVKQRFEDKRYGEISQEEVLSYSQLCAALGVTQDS
For `MTA2 (Homo sapiens, UniProt O94776)`, cross-linked residues read “K71 to K221” (HDAC2 (Homo sapiens, UniProt Q92769); cross-linking MS; cell fractions; together with: DSSO).
Under “normalised enrichment score”, `P1 L7E` is recorded as 0.328 (CCNF, cyclin fold, Cln2 fusion (human); yeast growth competition, sequencing; yeast; strong parent motif; relative to: not given, higher = stronger binding).
Under cross-linked residues, `ATP5PF (Homo sapiens, UniProt P18859)` is recorded as “K41 to K233” (ATP5PB (Homo sapiens, UniProt P24539); cross-linking MS; cell fractions; together with: DSSO).
